# Measurements from different studies.
# Protocols differ between the studies behind these lines. Numbers after ± are the reported error.
# SHB SH2 domain: SH2 domain-containing adapter protein B, SH2 domain (SHB, Homo sapiens, UniProt Q15464)
# UniProt Q15464, sequence (whole entry, looked up): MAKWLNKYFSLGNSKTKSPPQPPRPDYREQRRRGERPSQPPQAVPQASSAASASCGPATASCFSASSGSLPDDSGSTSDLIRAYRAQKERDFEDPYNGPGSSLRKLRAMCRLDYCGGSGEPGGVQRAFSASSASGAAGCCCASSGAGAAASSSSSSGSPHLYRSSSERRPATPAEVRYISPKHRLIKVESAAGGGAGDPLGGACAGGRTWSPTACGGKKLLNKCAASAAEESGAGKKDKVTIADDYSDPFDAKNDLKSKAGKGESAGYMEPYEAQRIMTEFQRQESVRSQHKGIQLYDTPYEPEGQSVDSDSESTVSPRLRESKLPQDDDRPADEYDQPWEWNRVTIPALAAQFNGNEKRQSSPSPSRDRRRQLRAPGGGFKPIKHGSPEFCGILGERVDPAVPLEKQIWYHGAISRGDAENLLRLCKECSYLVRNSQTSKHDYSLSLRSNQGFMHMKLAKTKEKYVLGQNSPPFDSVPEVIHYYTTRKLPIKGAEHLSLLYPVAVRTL
# UniProt P29350, sequence (whole entry, looked up): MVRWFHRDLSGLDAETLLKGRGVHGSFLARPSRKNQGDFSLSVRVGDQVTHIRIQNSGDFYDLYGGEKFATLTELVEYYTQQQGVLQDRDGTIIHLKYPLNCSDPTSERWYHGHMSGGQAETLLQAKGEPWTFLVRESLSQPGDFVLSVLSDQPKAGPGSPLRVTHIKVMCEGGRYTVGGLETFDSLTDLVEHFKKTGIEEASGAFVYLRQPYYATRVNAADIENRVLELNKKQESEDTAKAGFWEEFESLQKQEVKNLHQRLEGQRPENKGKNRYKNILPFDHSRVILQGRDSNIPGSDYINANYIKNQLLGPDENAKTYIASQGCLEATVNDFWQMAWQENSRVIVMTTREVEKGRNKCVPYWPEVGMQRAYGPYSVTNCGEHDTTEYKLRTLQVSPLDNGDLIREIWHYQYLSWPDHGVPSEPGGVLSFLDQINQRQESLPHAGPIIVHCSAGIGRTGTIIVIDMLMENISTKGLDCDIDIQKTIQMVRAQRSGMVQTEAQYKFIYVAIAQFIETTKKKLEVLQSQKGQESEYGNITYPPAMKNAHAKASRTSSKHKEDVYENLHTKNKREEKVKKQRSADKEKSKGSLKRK
# UniProt Q92973, sequence (whole entry, looked up): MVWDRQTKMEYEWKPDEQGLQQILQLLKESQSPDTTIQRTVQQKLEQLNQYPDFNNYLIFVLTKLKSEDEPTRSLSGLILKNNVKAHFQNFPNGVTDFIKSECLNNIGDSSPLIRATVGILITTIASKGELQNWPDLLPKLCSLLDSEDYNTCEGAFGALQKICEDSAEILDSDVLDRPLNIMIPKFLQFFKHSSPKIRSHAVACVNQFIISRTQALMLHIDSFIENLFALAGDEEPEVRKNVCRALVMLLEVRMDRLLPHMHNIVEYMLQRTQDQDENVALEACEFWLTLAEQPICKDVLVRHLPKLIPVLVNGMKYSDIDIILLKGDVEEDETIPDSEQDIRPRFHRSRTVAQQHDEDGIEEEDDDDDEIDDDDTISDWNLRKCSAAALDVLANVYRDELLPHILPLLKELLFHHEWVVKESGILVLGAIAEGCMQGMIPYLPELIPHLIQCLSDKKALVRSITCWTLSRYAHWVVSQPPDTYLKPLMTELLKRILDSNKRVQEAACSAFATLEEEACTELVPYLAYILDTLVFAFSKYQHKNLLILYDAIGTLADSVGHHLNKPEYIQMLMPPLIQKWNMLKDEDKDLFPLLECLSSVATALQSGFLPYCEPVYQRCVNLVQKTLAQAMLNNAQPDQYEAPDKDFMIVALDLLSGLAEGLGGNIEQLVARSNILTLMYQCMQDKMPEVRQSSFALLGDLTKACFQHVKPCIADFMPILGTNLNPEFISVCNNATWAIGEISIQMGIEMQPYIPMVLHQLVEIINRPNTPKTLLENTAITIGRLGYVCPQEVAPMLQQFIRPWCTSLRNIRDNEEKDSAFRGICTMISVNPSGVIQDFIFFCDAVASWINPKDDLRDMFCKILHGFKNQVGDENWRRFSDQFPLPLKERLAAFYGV
# UniProt Q13671, sequence (whole entry, looked up): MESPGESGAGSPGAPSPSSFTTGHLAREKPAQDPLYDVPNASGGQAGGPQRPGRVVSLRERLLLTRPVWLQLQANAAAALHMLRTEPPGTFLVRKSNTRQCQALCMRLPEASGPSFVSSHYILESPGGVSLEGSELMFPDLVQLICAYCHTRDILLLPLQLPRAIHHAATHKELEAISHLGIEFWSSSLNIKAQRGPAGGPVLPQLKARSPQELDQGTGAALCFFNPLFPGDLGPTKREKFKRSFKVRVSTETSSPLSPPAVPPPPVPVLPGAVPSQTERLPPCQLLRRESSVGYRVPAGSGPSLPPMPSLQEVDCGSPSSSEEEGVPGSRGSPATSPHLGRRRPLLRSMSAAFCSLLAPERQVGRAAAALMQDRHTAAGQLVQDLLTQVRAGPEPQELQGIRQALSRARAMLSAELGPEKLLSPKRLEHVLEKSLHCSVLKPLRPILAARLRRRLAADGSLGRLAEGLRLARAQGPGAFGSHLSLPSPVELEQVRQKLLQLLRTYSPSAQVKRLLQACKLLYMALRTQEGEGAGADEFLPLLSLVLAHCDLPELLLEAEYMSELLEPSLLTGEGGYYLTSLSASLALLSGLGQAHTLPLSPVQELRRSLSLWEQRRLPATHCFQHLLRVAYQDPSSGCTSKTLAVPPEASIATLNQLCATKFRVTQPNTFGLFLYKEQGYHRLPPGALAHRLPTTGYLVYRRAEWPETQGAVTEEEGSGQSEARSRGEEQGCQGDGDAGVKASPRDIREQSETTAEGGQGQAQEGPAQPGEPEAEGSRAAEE
# UniProt P98170, sequence (whole entry, looked up): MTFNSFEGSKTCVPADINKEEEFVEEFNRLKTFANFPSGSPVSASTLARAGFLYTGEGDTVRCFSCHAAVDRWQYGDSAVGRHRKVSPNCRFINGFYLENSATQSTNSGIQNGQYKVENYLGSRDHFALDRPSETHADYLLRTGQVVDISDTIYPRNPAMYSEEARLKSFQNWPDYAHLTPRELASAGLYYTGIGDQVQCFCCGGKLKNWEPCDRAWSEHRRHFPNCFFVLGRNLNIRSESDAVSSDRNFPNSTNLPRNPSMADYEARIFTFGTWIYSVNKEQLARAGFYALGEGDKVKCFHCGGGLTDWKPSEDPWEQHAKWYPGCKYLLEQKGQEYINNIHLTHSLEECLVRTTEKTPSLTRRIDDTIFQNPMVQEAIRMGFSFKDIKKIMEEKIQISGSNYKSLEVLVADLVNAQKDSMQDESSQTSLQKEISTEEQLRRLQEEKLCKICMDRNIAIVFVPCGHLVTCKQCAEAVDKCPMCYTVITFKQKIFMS
# UniProt Q9H6Q3, sequence (whole entry, looked up): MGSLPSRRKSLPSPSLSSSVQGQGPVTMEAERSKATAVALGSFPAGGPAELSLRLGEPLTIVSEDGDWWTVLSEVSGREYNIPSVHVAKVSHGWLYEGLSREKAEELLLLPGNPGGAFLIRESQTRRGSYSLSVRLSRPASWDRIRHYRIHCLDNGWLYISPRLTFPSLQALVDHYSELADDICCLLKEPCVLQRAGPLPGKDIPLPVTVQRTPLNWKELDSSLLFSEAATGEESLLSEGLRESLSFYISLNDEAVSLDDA
# UniProt P0AD96, sequence (whole entry, unmodified, looked up): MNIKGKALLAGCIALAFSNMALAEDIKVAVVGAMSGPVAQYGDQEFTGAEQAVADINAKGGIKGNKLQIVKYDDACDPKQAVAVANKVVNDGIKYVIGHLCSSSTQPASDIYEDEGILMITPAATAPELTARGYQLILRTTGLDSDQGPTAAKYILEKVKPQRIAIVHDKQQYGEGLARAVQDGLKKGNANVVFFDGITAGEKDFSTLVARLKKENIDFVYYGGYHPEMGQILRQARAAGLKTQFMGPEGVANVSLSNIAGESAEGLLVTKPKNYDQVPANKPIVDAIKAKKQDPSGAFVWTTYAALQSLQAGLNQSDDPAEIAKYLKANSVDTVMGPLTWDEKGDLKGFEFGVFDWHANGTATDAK
# UniProt P49116, sequence (whole entry, looked up): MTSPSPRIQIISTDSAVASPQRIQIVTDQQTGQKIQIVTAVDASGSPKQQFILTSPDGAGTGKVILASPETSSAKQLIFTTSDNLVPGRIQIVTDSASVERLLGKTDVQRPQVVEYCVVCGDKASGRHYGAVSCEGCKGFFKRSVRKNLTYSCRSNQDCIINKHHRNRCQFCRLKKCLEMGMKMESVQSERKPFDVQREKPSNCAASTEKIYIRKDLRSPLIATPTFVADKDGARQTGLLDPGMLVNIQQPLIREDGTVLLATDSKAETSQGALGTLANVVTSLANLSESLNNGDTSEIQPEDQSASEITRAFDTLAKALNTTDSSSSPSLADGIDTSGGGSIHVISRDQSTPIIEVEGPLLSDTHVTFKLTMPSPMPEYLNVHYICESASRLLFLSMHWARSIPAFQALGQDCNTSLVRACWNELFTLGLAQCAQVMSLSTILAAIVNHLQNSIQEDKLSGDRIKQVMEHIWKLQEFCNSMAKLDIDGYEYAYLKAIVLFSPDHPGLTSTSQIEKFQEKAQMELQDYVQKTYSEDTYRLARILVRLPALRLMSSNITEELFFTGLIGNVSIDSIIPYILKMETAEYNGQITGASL
# UniProt P40073, sequence (whole entry, looked up): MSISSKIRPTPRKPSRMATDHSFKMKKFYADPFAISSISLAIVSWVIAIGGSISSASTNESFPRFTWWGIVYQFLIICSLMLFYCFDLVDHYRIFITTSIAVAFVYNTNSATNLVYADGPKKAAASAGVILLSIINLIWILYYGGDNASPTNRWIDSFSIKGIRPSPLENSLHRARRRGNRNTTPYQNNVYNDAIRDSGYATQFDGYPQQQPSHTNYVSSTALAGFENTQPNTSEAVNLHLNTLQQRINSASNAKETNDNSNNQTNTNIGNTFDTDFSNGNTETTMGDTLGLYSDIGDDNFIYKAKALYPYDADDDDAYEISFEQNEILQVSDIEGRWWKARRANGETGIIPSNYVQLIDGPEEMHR
Structure (SMILES),target,assay,system,conditions,how to read,endpoint,value
C[C@H]1CN(c2n[nH]c3nc(N[C@H]4CC[C@H](NS(=O)(=O)CCC(F)(F)F)CC4)ncc23)CCO1,"Transportin-1 (TNPO1, Homo sapiens, UniProt Q92973)","inhibitor, Kinobeads competition profiling",,0.16 µM,relative to: vehicle,relative abundance,0.94
CC[C@H](C)[C@H](NC(=O)[C@H](CC(=O)O)NC(=O)[C@H](Cc1ccccc1)NC(=O)[C@@H](NC(=O)[C@H](CC(N)=O)NC(=O)[C@@H](NC(=O)[C@H](CC(=O)O)NC(=O)c1ccc2c(c1)C(=O)OC21c2ccc(N(C)C)cc2Oc2cc(N(C)C)ccc21)C(C)C)[C@@H](C)O)C(=O)N[C@H](C(=O)N[C@H](C(=O)N[C@@H](Cc1ccc(OP(=O)(O)O)cc1)C(=O)N[C@@H](CC(C)C)C(=O)N[C@@H](CC(C)C)C(=O)N[C@@H](CCC(N)=O)C(=O)NCC(=O)N[C@@H](CCCNC(=N)N)C(=O)N[C@@H](CCCNC(=N)N)C(=O)N[C@@H](CC(C)C)C(=O)N[C@@H](CC(=O)O)C(=O)O)C(C)C)[C@@H](C)O,"Growth factor receptor-bound protein 7, SH2 domain (GRB7, Homo sapiens, UniProt Q14451)",binding,,,,Kd,484 nM
Oc1ccc(/C=C/c2cc(O)cc(O)c2)cc1,"O-methyltransferase (Sorghum bicolor, UniProt A0A1B6PFV1, W279A)",isothermal titration calorimetry,,SFG-saturating,,Kd,27600 nM
CC[C@H](C)[C@H](NC(=O)[C@H](CCCNC(=N)N)NC(=O)CNC(=O)[C@H](Cc1c[nH]c2ccccc12)NC(=O)[C@@H]1CSC[C@@H](NC(=O)[C@H](Cc2ccc(O)cc2)NC(=O)[C@H](Cc2c[nH]c3ccccc23)NC(=O)[C@H](CC(C)C)NC(=O)CNC(=O)[C@H](CCCNC(=N)N)NC(=O)c2ccc3c(c2)C(=O)OC32c3ccc(O)cc3Oc3cc(O)ccc32)C(=O)N[C@@H](CC(C)C)C(=O)N[C@@H](CO)C(=O)N1)C(=O)NCC(=O)N[C@@H](CCCNC(=N)N)C(=O)N[C@@H](CCCNC(=N)N)C(=O)NCCCOCCOCCOCCCNC(=O)CCC(=O)NCCCOCCOCCOCCCNC(=O)CCC(=O)NCCCOCCOCCOCCCNC(=O)CCC(=O)N[C@@H](C)C(=O)O,"Sortase B (srtB, Staphylococcus aureus, UniProt Q2FZE3)","binding, fluorescence polarization",,pH 7.5,,Kd,> 300000 nM
Cc1sc2c(c1C)C(c1ccc(Cl)cc1)=N[C@@H](CC(=O)O)c1nnc(C)n1-2,"elongin C (Spodoptera frugiperda, UniProt A0A2H1WSX9+A0A9R0EEM2)","ternary complex formation, degrader, AlphaLISA",,,,Kd,> 500 nM
CC(C)[C@H](N)C(=O)O,"livJ (Escherichia coli, UniProt P0AD96, Q172C)",fluorescence titration,,,,Kd,1100 nM
O=P1(NCCCl)OCCCN1CCCl (centres unmarked),"Nuclear receptor subfamily 2 group C member 2, ligand-binding domain (Homo sapiens, UniProt P49116)",SPR imaging,,,,Kd,1.11 nM
CC[C@H](C)[C@H](NC(=O)[C@H](CCC(N)=O)NC(=O)[C@@H](NC(=O)[C@@H]1CCCN1C(=O)[C@@H](NC(=O)[C@H](CO)NC(=O)[C@H](Cc1ccccc1)NC(=O)[C@@H]1CCCN1C(=O)[C@H](CCC(N)=O)NC(=O)[C@@H](N)CCSC)[C@@H](C)CC)C(C)C)C(=O)N[C@H](C(=O)N[C@@H](CC(C)C)C(=O)N[C@@H](CCC(N)=O)C(=O)NCC(=O)N[C@@H](CO)C(=O)N[C@@H](CCCNC(=N)N)C(=O)N[C@@H](CCCNC(=N)N)C(=O)N[C@@H](CCCNC(=N)N)C(=O)N[C@@H](CCC(N)=O)C(=O)NCC(=O)N[C@@H](CCCNC(=N)N)C(N)=O)[C@@H](C)O,"Kcnma1 (Mus musculus, UniProt Q08460)","ion current, blocker, inside-out patch clamp",Xenopus oocytes,"range over 0.5 µM, pH 7.0, 22–24 °C, at 0 mV, with: 10 µM cytosolic Ca2+",,Kd,900 nM
Fc1ccc([C@@H]2CCNC[C@H]2COc2ccc3c(c2)OCO3)cc1,"snf (Aquifex aeolicus, UniProt O67854, G24D/I359G/N21Y/S256G/T254S)",saturation binding,,,,Kd,2340 ± 285 nM
CC(=O)N[C@H](C(=O)N[C@@H](CC(N)=O)C(=O)N[C@@H](CCCCN)C(=O)N1CCC[C@H]1C(=O)N[C@@H](CC(C)C)C(=O)N1CCC[C@H]1C(=O)N1CCC[C@H]1C(=O)N[C@@H](CC(C)C)C(=O)N1CCC[C@H]1C(=O)N[C@H](C(=O)N[C@@H](C)C(N)=O)C(C)C)C(C)C,"High osmolarity signaling protein SHO1, SH3 domain (SHO1, Saccharomyces cerevisiae, UniProt P40073)","binding, isothermal titration calorimetry","50 mM sodium phosphate, 100 mM NaCl","pH 7.0, 25 °C",,Kd,3400 ± 300 nM
CC(C)C[C@H](NC(=O)[C@@H](NC(=O)[C@H](CO)NC(=O)[C@H](CO)NC(=O)[C@@H](NC(=O)[C@H](CC(=O)O)NC(=O)[C@H](CC(C)C)NC(=O)[C@@H]1CCCN1C(=O)[C@H](CO)NC(=O)c1ccc2c(c1)C(=O)OC21c2ccc(N(C)C)cc2Oc2cc(N(C)C)ccc21)[C@@H](C)O)C(C)C)C(=O)N[C@@H](Cc1ccc(OP(=O)(O)O)cc1)C(=O)N[C@H](C(=O)N[C@@H](C)C(=O)N[C@H](C(=O)N[C@@H](CCC(N)=O)C(=O)N1CCC[C@H]1C(=O)N[C@@H](CC(N)=O)C(=O)N[C@@H](CCC(=O)O)C(=O)N[C@@H](CC(=O)O)C(=O)O)C(C)C)[C@@H](C)O,SHB SH2 domain,binding,,,,Kd,577 nM
CC[C@H](C)[C@H](NC(=O)[C@H](C)N)C(=O)N[C@@H](CO)C(=O)N[C@@H](CO)C(=O)N[C@@H](CO)C(=O)N[C@@H](CO)C(=O)N[C@@H](CS)C(=O)N[C@@H](CCC(=O)O)C(=O)N[C@@H](CC(C)C)C(=O)N1CCC[C@H]1C(=O)N[C@@H](CC(C)C)C(=O)N[C@H](C(=O)N[C@@H](C)C(=O)N[C@H](C(=O)N[C@@H](CCCCN)C(=O)N[C@@H](CCCCN)C(=O)N[C@@H](CCCCN)C(=O)N[C@@H](CCCCNC(=O)CCCCCNC(=S)Nc1ccc2c(c1)C(=O)OC21c2ccc(O)cc2Oc2cc(O)ccc21)C(N)=O)C(C)C)C(C)C,"E3 ubiquitin-protein ligase XIAP, BIR1 domain (XIAP, Homo sapiens, UniProt P98170)",fluorescence polarization,,"BIR domain, with: FITC-labelled peptide 20 nM",,Kd,no binding
O=P(O)(O)Oc1c2c(c(OP(=O)(O)O)c3c1C1CC3c3cc4c(cc31)C1CC4c3ccccc31)C1CC2c2cc3c(cc21)C1CC3c2ccccc21,Cdc25 peptide,fluorescence titration,PBS,,,Kd,~30000 nM
CC[C@H](C)[C@H](NC(=O)[C@H](Cc1ccc(OP(=O)(O)O)cc1)NC(=O)[C@H](CCC(=O)O)NC(=O)[C@H](Cc1c[nH]cn1)NC(=O)CNC(=O)[C@H](CC(=O)O)NC(=O)[C@H](CO)NC(=O)[C@H](CO)NC(=O)[C@@H](NC(=O)[C@H](CO)NC(=O)[C@H](CCC(=O)O)NC(=O)c1ccc2c(c1)C(=O)OC21c2ccc(N(C)C)cc2Oc2cc(N(C)C)ccc21)C(C)C)C(=O)N[C@@H](Cc1ccc(O)cc1)C(=O)N[C@H](C(=O)N[C@@H](CC(=O)O)C(=O)N1CCC[C@H]1C(=O)N[C@@H](CCSC)C(=O)N[C@@H](CCC(N)=O)C(=O)N[C@@H](CC(=O)O)C(=O)O)C(C)C,"Ras and Rab interactor 1, SH2 domain (RIN1, Homo sapiens, UniProt Q13671)",binding,,,,Kd,1460 nM
N.N.[Cl][Pt][Cl],"Peptidyl-prolyl cis-trans isomerase A (PPIA, Homo sapiens, UniProt P62937)",HDX MALDI-MS,,,,Kd,37000 nM
CC[C@H](C)[C@H](NC(=O)c1ccc2c(c1)C(=O)OC21c2ccc(N(C)C)cc2Oc2cc(N(C)C)ccc21)C(=O)N[C@@H](CCCCN)C(=O)N[C@@H](CCC(=O)O)C(=O)N[C@@H](CC(=O)O)C(=O)N[C@@H](CO)C(=O)N[C@@H](Cc1ccccc1)C(=O)N[C@@H](CC(C)C)C(=O)N[C@@H](CCC(N)=O)C(=O)N[C@@H](CCCNC(=N)N)C(=O)N[C@@H](Cc1ccc(OP(=O)(O)O)cc1)C(=O)N[C@@H](CO)C(=O)N[C@@H](CO)C(=O)N[C@@H](CC(=O)O)C(=O)N1CCC[C@H]1C(=O)N[C@H](C(=O)NCC(=O)N[C@@H](C)C(=O)N[C@@H](CC(=O)O)C(=O)O)[C@@H](C)O,SHB SH2 domain,binding,,,,Kd,862 nM
Nc1nc2c(ncn2[C@@H]2O[C@H](COP(=O)(O)OP(=O)(O)OP(=O)(O)O)[C@@H](O)[C@H]2O)c(=O)[nH]1,"GTP 3',8-cyclase (moaA, Staphylococcus aureus, UniProt P69848, R268K)","binding, anaerobic ITC",,"25 °C, R268K mutant",,Kd,1260 ± 930 nM
C[C@H](N)C(=O)N[C@@H](CCCNC(=N)N)C(=O)N[C@H](C(=O)N[C@@H](CCCC[N+](C)(C)C)C(=O)N[C@@H](CCC(N)=O)C(=O)N[C@H](C(=O)N[C@@H](C)C(=O)N[C@@H](CCCNC(=N)N)C(=O)N[C@@H](CCCCN)C(=O)N[C@@H](CO)C(=O)O)[C@@H](C)O)[C@@H](C)O,"PHD finger protein ING1, PHD finger (163-234) (ING1, Arabidopsis thaliana, UniProt Q9LIQ6)","binding, isothermal titration calorimetry",,"pH 7.0, with: histone H3 peptide",,Kd,860 nM
CSCC[C@H](NC(=O)CNC(=O)[C@H](Cc1ccccc1)NC(=O)[C@H](CC(=O)O)NC(=O)CNC(=O)c1ccc2c(c1)C(=O)OC21c2ccc(N(C)C)cc2Oc2cc(N(C)C)ccc21)C(=O)N[C@@H](CO)C(=O)N[C@@H](CCCNC(=N)N)C(=O)N[C@@H](CC(=O)O)C(=O)N[C@H](C(=O)N[C@@H](Cc1ccc(OP(=O)(O)O)cc1)C(=O)N[C@@H](CO)C(=O)N[C@H](C(=O)N[C@@H](CC(=O)O)C(=O)N[C@@H](Cc1ccc(O)cc1)C(=O)N[C@@H](Cc1ccc(O)cc1)C(=O)N[C@@H](CCCNC(=N)N)C(=O)N[C@H](C(=O)N[C@@H](CC(=O)O)C(=O)O)C(C)C)[C@@H](C)O)C(C)C,"Src-like-adapter 2, SH2 domain (SLA2, Homo sapiens, UniProt Q9H6Q3)",binding,,,,Kd,1790 nM
Cc1cn([C@H]2C[C@H](O)[C@@H](COP(=O)(O)OP(=O)(O)OP(=O)(O)O)O2)c(=O)[nH]c1=O,"DNA polymerase I, Klenow fragment (polA, Escherichia coli, UniProt P00582, C907S/D424A/E710A/L744C)","nucleotide incorporation, substrate, single-turnover rapid quench",,with: radiolabelled primer-template DNA,,Kd,110000 ± 10000 nM
COc1cc(Nc2ncc(F)c(Nc3ccc4c(n3)NC(=O)C(C)(C)O4)n2)cc(OC)c1OC,"Alpha-2B adrenergic receptor (ADRA2B, Homo sapiens, UniProt P18089)",,,,,IC50,> 10000 nM
CSCC[C@H](NC(=O)[C@H](Cc1ccc(OP(=O)(O)O)cc1)NC(=O)CNC(=O)CNC(=O)[C@H](CC(=O)O)NC(=O)[C@H](CO)NC(=O)[C@H](CCC(=O)O)NC(=O)CNC(=O)[C@@H](NC(=O)[C@H](CC(C)C)NC(=O)[C@H](CO)NC(=O)c1ccc2c(c1)C(=O)OC21c2ccc(N(C)C)cc2Oc2cc(N(C)C)ccc21)[C@@H](C)O)C(=O)N[C@@H](CC(=O)O)C(=O)N[C@@H](CCSC)C(=O)N[C@@H](CO)C(=O)N[C@@H](CCCCN)C(=O)N[C@@H](CC(=O)O)C(=O)N[C@@H](CCC(=O)O)C(=O)N[C@@H](CC(=O)O)C(=O)O,"Tyrosine-protein phosphatase non-receptor type 6, SH2 domains (PTPN6, Homo sapiens, UniProt P29350)",binding,,,,Kd,1020 nM
COC1=C2C[C@@H](C)C[C@H](OC)[C@H](O)[C@@H](C)/C=C(\C)[C@H](OC(N)=O)[C@@H](OC)/C=C\C=C(/C)C(=O)NC(=C(C)C1=O)C2=O,"ATP-dependent molecular chaperone HSP82, N-terminal domain (HSP82, Saccharomyces cerevisiae S288c, UniProt P02829)","binding, isothermal titration calorimetry",,,,Kd,16300 nM
